Assay results from different studies.
A part holds a random share of what one study measured.
Chain of UniProt Q9Y6R4 (whole entry, looked up): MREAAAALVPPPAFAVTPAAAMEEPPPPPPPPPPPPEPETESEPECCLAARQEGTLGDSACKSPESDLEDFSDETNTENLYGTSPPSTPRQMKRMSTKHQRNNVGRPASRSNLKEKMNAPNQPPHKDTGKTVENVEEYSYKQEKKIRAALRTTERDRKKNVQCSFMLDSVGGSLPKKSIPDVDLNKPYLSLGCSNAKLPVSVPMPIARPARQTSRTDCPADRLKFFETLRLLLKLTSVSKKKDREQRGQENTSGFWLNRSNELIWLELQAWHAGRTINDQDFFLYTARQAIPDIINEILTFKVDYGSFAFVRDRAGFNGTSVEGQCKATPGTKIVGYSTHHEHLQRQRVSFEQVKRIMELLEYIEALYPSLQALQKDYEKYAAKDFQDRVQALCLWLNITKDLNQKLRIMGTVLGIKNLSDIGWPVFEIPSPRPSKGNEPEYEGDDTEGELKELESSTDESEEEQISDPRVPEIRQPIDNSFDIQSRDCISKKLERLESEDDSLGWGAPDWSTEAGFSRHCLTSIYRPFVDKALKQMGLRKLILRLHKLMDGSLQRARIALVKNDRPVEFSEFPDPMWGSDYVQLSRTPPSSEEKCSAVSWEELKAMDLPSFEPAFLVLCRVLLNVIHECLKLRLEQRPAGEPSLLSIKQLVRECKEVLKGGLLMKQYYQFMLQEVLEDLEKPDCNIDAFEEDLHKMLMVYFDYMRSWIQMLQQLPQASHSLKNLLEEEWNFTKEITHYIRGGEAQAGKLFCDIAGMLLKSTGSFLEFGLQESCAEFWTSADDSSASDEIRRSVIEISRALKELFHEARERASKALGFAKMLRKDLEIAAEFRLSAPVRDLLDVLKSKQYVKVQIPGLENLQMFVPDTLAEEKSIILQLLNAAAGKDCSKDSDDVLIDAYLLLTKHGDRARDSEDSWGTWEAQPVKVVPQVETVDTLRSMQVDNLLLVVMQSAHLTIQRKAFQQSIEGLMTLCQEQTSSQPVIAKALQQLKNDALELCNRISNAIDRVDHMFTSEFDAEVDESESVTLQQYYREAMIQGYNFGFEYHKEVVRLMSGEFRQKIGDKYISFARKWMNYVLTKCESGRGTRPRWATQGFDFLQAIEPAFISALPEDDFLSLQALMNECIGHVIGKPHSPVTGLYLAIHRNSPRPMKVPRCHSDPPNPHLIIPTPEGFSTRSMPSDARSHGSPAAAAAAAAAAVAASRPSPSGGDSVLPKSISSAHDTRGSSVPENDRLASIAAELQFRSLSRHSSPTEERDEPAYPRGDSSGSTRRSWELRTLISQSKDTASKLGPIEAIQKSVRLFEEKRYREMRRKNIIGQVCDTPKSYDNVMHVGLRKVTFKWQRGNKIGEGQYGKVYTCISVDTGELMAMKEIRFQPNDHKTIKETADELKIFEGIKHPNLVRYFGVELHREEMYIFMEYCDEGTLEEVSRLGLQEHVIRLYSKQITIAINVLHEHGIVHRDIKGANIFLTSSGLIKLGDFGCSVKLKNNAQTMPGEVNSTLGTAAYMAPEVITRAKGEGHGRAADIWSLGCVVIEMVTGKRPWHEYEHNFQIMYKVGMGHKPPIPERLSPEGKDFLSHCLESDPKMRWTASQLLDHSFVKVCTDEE
Chain of UniProt Q9BYP7 (whole entry, looked up): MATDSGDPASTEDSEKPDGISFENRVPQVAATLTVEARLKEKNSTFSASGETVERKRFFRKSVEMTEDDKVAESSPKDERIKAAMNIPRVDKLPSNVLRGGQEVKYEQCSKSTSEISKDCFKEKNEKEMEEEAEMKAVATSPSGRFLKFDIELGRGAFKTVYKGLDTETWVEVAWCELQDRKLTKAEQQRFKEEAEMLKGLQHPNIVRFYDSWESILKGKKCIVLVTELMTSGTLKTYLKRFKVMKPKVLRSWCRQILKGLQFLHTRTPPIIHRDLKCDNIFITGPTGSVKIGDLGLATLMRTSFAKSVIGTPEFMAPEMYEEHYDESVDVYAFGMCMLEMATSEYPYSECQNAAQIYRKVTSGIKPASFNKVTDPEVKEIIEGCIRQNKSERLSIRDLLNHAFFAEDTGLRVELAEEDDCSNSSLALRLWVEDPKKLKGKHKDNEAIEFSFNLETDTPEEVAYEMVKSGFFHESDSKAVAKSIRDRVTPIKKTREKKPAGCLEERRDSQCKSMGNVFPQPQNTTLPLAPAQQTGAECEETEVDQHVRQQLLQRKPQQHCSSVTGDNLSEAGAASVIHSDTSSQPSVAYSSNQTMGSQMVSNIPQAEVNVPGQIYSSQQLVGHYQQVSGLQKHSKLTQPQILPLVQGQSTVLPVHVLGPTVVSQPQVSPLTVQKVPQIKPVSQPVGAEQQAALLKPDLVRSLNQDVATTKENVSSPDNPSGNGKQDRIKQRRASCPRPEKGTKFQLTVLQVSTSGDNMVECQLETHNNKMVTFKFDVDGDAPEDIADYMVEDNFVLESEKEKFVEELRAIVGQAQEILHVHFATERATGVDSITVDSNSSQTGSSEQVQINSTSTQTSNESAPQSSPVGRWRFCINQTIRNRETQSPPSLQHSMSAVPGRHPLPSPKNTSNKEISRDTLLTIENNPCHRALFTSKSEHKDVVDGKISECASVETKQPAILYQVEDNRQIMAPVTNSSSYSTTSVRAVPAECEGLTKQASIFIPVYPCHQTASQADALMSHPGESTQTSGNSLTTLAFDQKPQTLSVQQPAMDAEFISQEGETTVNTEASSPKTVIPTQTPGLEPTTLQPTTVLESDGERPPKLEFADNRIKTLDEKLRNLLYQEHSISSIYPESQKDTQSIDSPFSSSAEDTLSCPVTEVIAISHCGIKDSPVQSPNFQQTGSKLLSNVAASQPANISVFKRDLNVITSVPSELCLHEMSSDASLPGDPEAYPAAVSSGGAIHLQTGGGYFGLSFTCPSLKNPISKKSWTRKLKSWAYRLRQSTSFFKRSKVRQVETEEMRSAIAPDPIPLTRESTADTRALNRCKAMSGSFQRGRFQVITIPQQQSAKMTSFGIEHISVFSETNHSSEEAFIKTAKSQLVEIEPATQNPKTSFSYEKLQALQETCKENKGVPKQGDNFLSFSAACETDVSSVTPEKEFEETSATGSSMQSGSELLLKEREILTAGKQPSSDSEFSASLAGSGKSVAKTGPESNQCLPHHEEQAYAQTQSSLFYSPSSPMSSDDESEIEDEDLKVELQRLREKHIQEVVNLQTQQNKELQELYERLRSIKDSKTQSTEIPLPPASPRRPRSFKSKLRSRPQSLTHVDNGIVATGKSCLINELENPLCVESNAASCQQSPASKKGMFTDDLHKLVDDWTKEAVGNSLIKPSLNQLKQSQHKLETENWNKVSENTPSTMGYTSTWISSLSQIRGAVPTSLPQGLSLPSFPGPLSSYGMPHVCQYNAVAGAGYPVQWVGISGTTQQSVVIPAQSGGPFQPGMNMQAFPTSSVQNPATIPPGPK
Chain of UniProt Q15349 (whole entry, looked up): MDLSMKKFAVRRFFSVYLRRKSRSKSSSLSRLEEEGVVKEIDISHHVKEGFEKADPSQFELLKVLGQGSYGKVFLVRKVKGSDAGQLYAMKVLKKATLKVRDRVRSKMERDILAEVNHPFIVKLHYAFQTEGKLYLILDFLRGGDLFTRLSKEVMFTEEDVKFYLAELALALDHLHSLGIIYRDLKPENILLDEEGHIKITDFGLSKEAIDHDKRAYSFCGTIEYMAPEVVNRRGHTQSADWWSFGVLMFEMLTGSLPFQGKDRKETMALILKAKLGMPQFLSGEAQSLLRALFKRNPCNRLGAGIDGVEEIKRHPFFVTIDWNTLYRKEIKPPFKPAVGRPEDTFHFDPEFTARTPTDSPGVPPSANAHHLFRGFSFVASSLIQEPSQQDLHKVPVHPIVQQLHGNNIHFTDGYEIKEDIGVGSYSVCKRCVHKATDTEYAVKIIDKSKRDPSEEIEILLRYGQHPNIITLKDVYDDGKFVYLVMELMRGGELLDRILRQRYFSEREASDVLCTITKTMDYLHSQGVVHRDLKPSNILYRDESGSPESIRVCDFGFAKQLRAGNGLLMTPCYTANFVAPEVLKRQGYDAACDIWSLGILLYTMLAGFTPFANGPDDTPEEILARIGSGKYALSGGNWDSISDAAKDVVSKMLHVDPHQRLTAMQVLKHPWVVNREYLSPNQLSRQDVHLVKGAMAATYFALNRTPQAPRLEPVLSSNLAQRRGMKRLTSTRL
Chain of UniProt O75676 (whole entry, looked up): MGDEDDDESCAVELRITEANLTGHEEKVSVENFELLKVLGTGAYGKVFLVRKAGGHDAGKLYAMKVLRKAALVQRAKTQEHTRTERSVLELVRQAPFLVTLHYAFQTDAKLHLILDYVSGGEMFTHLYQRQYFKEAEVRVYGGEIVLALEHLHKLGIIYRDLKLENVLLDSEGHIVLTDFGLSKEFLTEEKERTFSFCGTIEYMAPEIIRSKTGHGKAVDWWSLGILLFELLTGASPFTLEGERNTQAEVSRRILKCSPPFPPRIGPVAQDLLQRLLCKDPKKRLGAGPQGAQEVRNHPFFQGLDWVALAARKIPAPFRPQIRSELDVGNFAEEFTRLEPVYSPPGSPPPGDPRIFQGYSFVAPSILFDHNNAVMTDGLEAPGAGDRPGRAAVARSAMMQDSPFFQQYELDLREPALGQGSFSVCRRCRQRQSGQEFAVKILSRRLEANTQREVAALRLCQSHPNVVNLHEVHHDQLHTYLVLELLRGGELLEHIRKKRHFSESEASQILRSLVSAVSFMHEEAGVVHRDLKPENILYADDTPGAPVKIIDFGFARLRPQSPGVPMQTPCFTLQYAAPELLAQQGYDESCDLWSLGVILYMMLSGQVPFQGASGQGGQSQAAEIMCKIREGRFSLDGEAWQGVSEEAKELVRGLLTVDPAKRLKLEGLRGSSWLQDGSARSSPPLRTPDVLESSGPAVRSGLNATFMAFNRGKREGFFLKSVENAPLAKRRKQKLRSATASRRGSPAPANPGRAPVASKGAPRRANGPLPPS

Series 1 — read-out: enzyme activity; action: inhibitor; concentration: 0.5 µM; relative to: control
Target: Myotonin-protein kinase (DMPK, Homo sapiens, UniProt Q09013)
Residues (Q09013 1-629): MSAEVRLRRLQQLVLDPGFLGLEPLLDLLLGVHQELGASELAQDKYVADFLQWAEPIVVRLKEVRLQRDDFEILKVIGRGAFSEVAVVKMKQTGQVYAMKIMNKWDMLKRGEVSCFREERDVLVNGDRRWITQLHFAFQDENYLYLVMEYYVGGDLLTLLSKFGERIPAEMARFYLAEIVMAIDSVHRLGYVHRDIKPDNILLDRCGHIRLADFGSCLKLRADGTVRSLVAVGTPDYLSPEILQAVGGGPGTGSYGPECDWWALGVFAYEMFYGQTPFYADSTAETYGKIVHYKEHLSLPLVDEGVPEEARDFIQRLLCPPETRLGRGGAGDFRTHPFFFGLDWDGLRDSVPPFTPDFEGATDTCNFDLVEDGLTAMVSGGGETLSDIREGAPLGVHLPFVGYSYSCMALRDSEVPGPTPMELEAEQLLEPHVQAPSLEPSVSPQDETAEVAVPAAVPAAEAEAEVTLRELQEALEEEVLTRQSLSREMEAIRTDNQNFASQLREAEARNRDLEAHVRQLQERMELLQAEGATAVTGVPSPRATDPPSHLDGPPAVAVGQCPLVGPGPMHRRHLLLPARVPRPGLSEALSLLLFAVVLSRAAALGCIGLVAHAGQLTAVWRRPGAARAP
Structure (SMILES) | remaining activity
O=C(c1cc2cc(O)ccc2[nH]1)c1cc2cc(O)ccc2[nH]1 | 96.9%
c1ccc2c(-c3ccncc3)c[nH]c2c1 | 109%
O=C1NC(=O)c2c1c1c3ccccc3[nH]c1n1cncc21 | 101%
CNc1cc2c(Nc3cccc(Br)c3)ncnc2cn1 | 112%
CC(C)(C)c1nc2c3cc[nH]c(=O)c3c3cc(F)ccc3c2[nH]1 | 105%
O=C(c1ccccc1)c1ccc(N2CCOCC2)cc1O | 98.9%
c1ccc(-c2n[nH]c3c2oc2ccccc23)cc1 | 99.5%
C[C@@H](N)[C@H]1CC[C@H](C(=O)Nc2ccncc2)CC1 | 99%
Cc1ccc(S(=O)(=O)/C=C/C#N)cc1 | 89%
COc1cc2c(N3CCN(C(=O)Nc4ccc(OC(C)C)cc4)CC3)ncnc2cc1OCCCN1CCCCC1 | 101%
c1cc(-c2cnn3cc(-c4ccc(OCCN5CCCCC5)cc4)cnc23)ccn1 | 99.3%
CC(C)N(CCC(=O)c1ccc2ccccc2c1)Cc1ccccc1 | 108%
O=C(O)/C=C/c1cc(Br)c(Br)c(Br)c1Br | 103%
O=C1Nc2ccccc2/C1=C\c1c(Cl)[nH]c2ccccc12 | 101%
O=Nc1c(-c2c(O)[nH]c3cc(Br)ccc23)[nH]c2ccccc12 | 124%
CN(C)S(=O)(=O)c1ccc2c(c1)/C(=C/c1cc3c([nH]1)CCCC3)C(=O)N2 | 102%
O=C1Nc2ccc(Br)cc2/C1=C/c1cc2c([nH]1)CCCC2 | 101%
Clc1ccc(Nc2nnc(Cc3ccncc3)c3ccccc23)cc1 | 102%
COc1ccc(COc2ccc(Cc3cnc(N)nc3N)cc2OC)cc1 | 101%
Oc1cccc(-c2nc(N3CCOCC3)c3oc4ncccc4c3n2)c1 | 99.5%
N#C/C(=C(/N)SC1C=CC=CC1)c1cccc(C(O)c2ccncc2)c1 (centres unmarked) | 126%
Nc1nc(Nc2ccc(S(N)(=O)=O)cc2)nn1C(=S)Nc1c(F)cccc1F | 78.4%
O=Nc1c(-c2c(O)[nH]c3ccccc23)[nH]c2ccccc12 | 101%
O=C1NC(=O)/C(=C/c2ccc3c(c2)OC(F)(F)O3)S1 | 97.5%
Cc1cc(Nc2cc(N3CCN(C)CC3)nc(Sc3ccc(NC(=O)C4CC4)cc3)n2)[nH]n1 | 98.5%

Series 2 — host: human; sample: microsomes or S9; concentration: 2 µM; time: 0.5 h
SMILES | remaining compound [%]
COc1ncc(-c2ccc(-c3ccn[nH]3)cc2)c(OC)n1 | 90.8
COCCN1C(=O)c2ccccc2C(C(=O)N(C)c2ccccc2Cl)C1c1cccs1 (centres unmarked) | 3.5
O=C(CCN1C(=O)c2ccccc2N2C(=O)c3ccccc3C12)NCC1CCOCC1 (centres unmarked) | 30.6
CCOC(=O)c1cn(-c2nc(Cl)ncc2Cl)cc1C(=O)OCC | 0.414
Oc1c(Cl)c(Nc2ccccc2)c(O)n1-c1ccccc1 | 57.7
CS(=O)(=O)N1CCC[C@H]1C(=O)NCCCn1nnc2ccccc21 | 94.5
Cc1cc(C)c2nc(Nc3nc(C)c(C)c(O)n3)nc(C)c2c1 | 29.4
CC(=O)Nc1ccc(Cl)c(C(=O)N(C)C(CO)C(C)(C)C)c1 (centres unmarked) | 81.4

Series 3 — organism: Sarcocystis neurona; read-out: parasite growth; concentration: 10 µM
SMILES | inhibition [%]
C[N+]1(C)CCC(OC(=O)C(O)(c2ccccc2)C2CCCC2)C1 (centres unmarked) | -36.1
C[C@]12CCC(=O)C=C1CC[C@@H]1[C@@H]2C(=O)C[C@@]2(C)[C@H]1CC[C@]2(O)C(=O)CO | 3.8
Cc1onc(-c2c(Cl)cccc2Cl)c1C(=O)N[C@@H]1C(=O)N2[C@@H]1SC(C)(C)[C@@H]2C(=O)O | -25.8
NS(=O)(=O)c1cc2c(cc1C(F)(F)F)NCNS2(=O)=O | -20.6
Fc1ccc([C@@H]2CCNC[C@H]2COc2ccc3c(c2)OCO3)cc1.O=C(O)/C=C\C(=O)O | 4.2
CN(C)CCN(Cc1ccccc1)c1ccccn1 | -23.5
CC(C(=O)O)c1ccc(-c2ccccc2)c(F)c1 (centres unmarked) | 3.6
CN(C)CCC=C1c2ccccc2COc2ccccc21 | -23.8
CCC(=O)O[C@]1(C(=O)SCF)[C@H](C)C[C@H]2[C@@H]3C[C@H](F)C4=CC(=O)C=C[C@]4(C)[C@@]3(F)[C@@H](O)C[C@@]21C | 4.1

Series 4 — read-out: cell-free assay; technique: competition with immobilised ligand; concentration: 1 µM
SMILES: Cc1c(NC(=O)c2cc(C(N)=O)nc3cc(F)ccc23)c(C(F)(F)F)nn1Cc1ccc(C(C)(C)C)cc1
target | remaining binding
WNK3 (Homo sapiens, UniProt Q9BYP7) | 97%
Ribosomal protein S6 kinase alpha-4, N-terminal kinase domain (RPS6KA4, Homo sapiens, UniProt O75676) | 92%
MET (Homo sapiens, UniProt P08581, M1250T) | 88%
FLT3 (Homo sapiens, UniProt P36888, D835H) | 79%
ERN1 (Homo sapiens, UniProt O75460) | 89%
MAP3K4 (Homo sapiens, UniProt Q9Y6R4) | 100%
CDK11A (Homo sapiens, UniProt Q9UQ88) | 94%
Ribosomal protein S6 kinase alpha-2, N-terminal kinase domain (RPS6KA2, Homo sapiens, UniProt Q15349) | 100%

Repeated from above (series 2):
SMILES | remaining compound [%]
COc1ncc(-c2ccc(-c3ccn[nH]3)cc2)c(OC)n1 | 90.8
Oc1c(Cl)c(Nc2ccccc2)c(O)n1-c1ccccc1 | 57.7
COCCN1C(=O)c2ccccc2C(C(=O)N(C)c2ccccc2Cl)C1c1cccs1 (centres unmarked) | 3.5
Cc1cc(C)c2nc(Nc3nc(C)c(C)c(O)n3)nc(C)c2c1 | 29.4
CC(=O)Nc1ccc(Cl)c(C(=O)N(C)C(CO)C(C)(C)C)c1 (centres unmarked) | 81.4
CCOC(=O)c1cn(-c2nc(Cl)ncc2Cl)cc1C(=O)OCC | 0.414
